# Assay results pooled from the literature.
# Parts stem from different laboratories: compare values within a part only.

# Set 1
# Target: RNA binding protein fox-1 homolog 2, RRM domain, GST-SBP tag (RBFOX2, Homo sapiens, UniProt O43251-10, residues 100-194)
# Method: RNA Bind-n-Seq
# Form: RNA
# Medium: in vitro
# Tested at: 365 nM
# Setting: natural RNA segment, single round, ends assumed
# Reference: no-protein control
# Reading: higher = stronger binding
# Shared flanks, not repeated: GGGAGUUCUACAGUCCGACGAUC … UGGAAUUCUCGGGUGCCAA
# Target sequence (chain): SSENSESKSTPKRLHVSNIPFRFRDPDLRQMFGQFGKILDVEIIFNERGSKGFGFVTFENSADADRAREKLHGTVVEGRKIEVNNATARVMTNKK
Oligonucleotide,RBNS enrichment (R)
CAUGGAAAAAAUUUUCCAUCCACAAAUACAAACAUGAAUAAAUACAUUCAGAAUGUUGGCACCAUGAUGUUGGGCUUUAUUUGCUUUCCUGAGUAGUCCUCUUUCUUGUU,0.496
AGAAAAAAGAAAGAAAGAAAAAUGAUUAGAAAUUGAGAACUAUUUUACGUGUUUCUAAGUUGUUGGCUACAUCAAAGAGAUCAUCUGUAUUCUGCAUAUGGGCUGGCUUU,1.04
UGGUAGUGGUCUGCCGUGCAGGGGAUGCCUGCUAUGCAGGUGAUGCCCUCCCAGGAUCUAUUCCUGGUGGGCACUGCUGUGUCUCCCCCAGAGUGGCACUCAAAGUACUA,0.237
UUCAAAACAUUUUGAAAAGCAUUUACUUUUUUGACCACGAGCCAUGAGUUUUCAAAAAAAUCGGGGGUUGUGUGGGUUUUUGGUUUUUGUUUUAGUUUUUGGUUGCGUUG,0.629
GGCAUGGUGACUUGUCACUCCUGCCAAAAAUAUUAAAAAUGCCUUUUUUGGAAGGACUACAGAAAGUACCUGAUUUGCACUUGAACCAGAUUAUAGAUUUAAAAGUAUAU,1.62
AAUAUUAAUAUCUACCAACACAUAGACUUCCUAAAAUCGAUAUAUUGCUUGAAUCACACUUUUACUGUGGCUGAAUUUUUUGUGCCUAGUUAUAAAAAAGACACUUCGAA,1.49
CACAUAAAGUGAACAAGAAAGUCAGCCAUUAUUUCACGCCAGACUUGAUUCCAUCCUGAGAAUUCAUGUUUAUAAUUAAAUGUGUGUUAAAUAUGCAAGCAUAUCACAAA,0.433
GCUUUCUUCAUUCAGUGUGCCAUCUUUGAUCUUACAGCGGUGCCUGUGGAAGGACAGGGUGAGAAAAGCUCGGAGAGAGAAAGAAUCGAGGGCAGGAGAGAGUGGACAGC,0.867
GUUAUAAUCCUAUAUAAAGCUACUCCUUGUUGCUGUGUGCAAGUUUACAUCAGGAUGCUCACGUGAUUUGUGAAUAUUUUCAUUCCAUCAACAAGGGAGUUUAAUUAUGU,0.768

# Set 2
# Target: RING finger protein unkempt homolog, zinc fingers 1-6, GST-SBP tag (UNK, Homo sapiens, UniProt Q9C0B0, residues 30-357)
# Method: RNA Bind-n-Seq
# Form: RNA
# Medium: in vitro
# Tested at: not given
# Setting: RNA with constant flanks, human-mouse chimeric sites, ends assumed
# Reference: input RNA pool
# Reading: higher = stronger binding
# Shared flanks, not repeated: GGGAGUUCUACAGUCCGACGAUC … CAACAGAGGAUUGAGCAUCA
# Target sequence (chain): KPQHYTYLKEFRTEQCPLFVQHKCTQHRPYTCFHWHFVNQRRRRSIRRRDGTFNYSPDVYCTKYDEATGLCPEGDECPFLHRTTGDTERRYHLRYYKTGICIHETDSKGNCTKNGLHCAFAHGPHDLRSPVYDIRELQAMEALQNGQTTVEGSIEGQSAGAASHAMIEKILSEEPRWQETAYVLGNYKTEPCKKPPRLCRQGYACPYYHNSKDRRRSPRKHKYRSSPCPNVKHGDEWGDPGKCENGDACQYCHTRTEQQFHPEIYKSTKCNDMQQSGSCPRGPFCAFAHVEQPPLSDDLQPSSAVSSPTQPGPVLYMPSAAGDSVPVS
Oligonucleotide,bound/input enrichment [ratio]
GGUGGGGUGGUCAUUGCGCCAAUUGAGGCUGAUUUUCAUGAGUCGCCUUCAAAACUCUCGUGUAGGGUUGACAAUGUGGGGGGGUGGGAAAUCUAGCUUAUUCUUUUAUUUUCAAGUCCA,3.99
AGAGCCCAGGAUGUUGAUGCUACAAACCCAAAUUACGAAAUUAUGUGUAUGAUCAGAGACUUCAGAGGAAGUUUGGAUUACAGACCCCUAACAACAGCAGAUCCUAUUGAUGAACAUAGG,0.494
UACUACUAUGAUGGUGAUAUUGGAAAUUAUUAUUAUGGCCAGGGUCAUCCCAUGAAGCCUCAUAGAAUCCGGAUGACUCAUAACUUGCUGCUAAAUUAUGGCUUAUACCGAAAAAUGGAA,0.2
UAUAUCACCAAUGUUCUACAAAAUCCUGACUUGGCUCUGAGAAUGGCUGUGCGGAACAACUUAGCUGGUGCUGAAGAACUCUUUGCCCGGAAAUUUAAUGCUCUUUUCGCCCAGGGAAAC,0.189
GUGCCCUUCUCGCUGCUGCGGAGCCCGAGCUGGGAACACCCCUUCCGCUGGUACCCUGCACACAGCCGCCUCUUCGAUCAAGCUUUCGGGGUGCCCCGGUUGCCCGAUGAGUGGUCGCAG,0.0617
CUUAAUGUUAAUAUUUUUGAAUAAAUGAAGCUAAAAUGUCUGCUUUUGGUACAACACGCAUUAAUAAAAGGUUAAGUUUUGUUUUCCCUCCACUGAAUAUUUAACAUCUCAGAAAAAAAC,0.436
CGCUGGCCCAAGCUGAUGGACUCUGAUCUUGAUCUCUUCUCAGGCACGUGUGCCUUCUCUUAGUCCCUGUUUUCGGGAUGUUAUGAAUCUCAGUACUGUGGUUUGAAAGCACCAGCUUUG,0.171
UGUAGUUUCGCGGUUCAGGCUUUGUGUGUAGUUCACUUACGGUAUUAAAUUAUUAUUCUGCUUAGCUUAUAAUAAGGAUAAUUGCAUUUAAAGAGGUUACUGAAUGUUACUCUGAAACUU,0.552
GCCACCAAUUCCAGCCAACAUGACCCUUGCAGCCUAUAAAGAGAAGAUGAAGGAGCUCCCGCUGGUGUCCUUGUUCUGCUCCUGCUUCCUGGCCGAUCCCCUGAAUAAGUCGUCCUACAA,0.337
GCUCUUGGGAAUGUAAUCAGCGCCUUGGGGGACAAGAGCAAGAGGGCCACCCAUGUCCCUUACAGAGACUCUAAGCUAACAAGACUAUUGCAGGAUUCCCUUGGGGGUAACAGCCAAACC,0.155
ACCUCCCCCUCCCGCCUCACCCCACCCCCGCUUUUUGGAAAGUUUUUGGCGUUUCUUUUCCUUCCCCAGUUAGAAUUAUUACAGUUUCCCCCGCAAGUGGGGCUUGAAGGGCUUGACGGA,20.2

# Set 3
# Target: Phosphate system positive regulatory protein PHO4, full length, GST-tagged (PHO4, Saccharomyces cerevisiae, UniProt P07270, residues 1-312)
# Method: competition protein-binding microarray
# Form: double-stranded DNA, one strand shown
# Medium: in vitro
# Tested at: 2 µM
# Setting: whole 60-bp probe, lowest competitor level
# With: Cbf1 competitor, 0.05 µM
# Reading: higher = stronger binding
# Shared flanks, not repeated: … GTCTTGATTCGCTTGACGCTGCTG
# Target sequence (chain): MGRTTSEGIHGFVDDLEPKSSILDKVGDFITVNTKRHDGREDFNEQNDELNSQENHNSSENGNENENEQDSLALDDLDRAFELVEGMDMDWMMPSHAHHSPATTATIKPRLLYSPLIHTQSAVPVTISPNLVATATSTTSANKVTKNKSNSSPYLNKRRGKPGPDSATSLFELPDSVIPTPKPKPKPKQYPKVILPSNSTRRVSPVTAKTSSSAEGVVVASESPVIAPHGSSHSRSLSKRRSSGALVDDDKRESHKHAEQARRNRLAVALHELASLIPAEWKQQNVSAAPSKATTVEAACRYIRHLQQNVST
Oligonucleotide,fluorescence intensity [a.u.]
GGCATACCTGTAAATCACCTGCTAACAAGGAATTCC,4550
CTTTCCCGATCTTGACAGGTGGGTGTAGCACATTTG,6300
GTCTTGTCTCATTGTCACTTCACTTTCCCCACTTCA,4490
TGCCATTGATCCAGTCTCGTGACTCGGACAGAACTG,5830
CCCACCGTAAGGAAACACGTGGTGATGGTGGTATAT,18900
TTTAGGTACAACATACTCGTGTGTTGCTCACTTTGC,7950
AAAGCGGTAATTTGCCACGTGGGTGCAGATATCTAT,20700
AAAGCGGTAATTTGTCGGGTGGGTGCAGATATCTAT,4570
TTTCAAAAATTTCTTAACGTGGGTATTCTTCTTCCT,6950
CAGAAGGCAGACCATCACGATTGATAAAGATTAAGC,4810
CTTCTGTAAATTTGTCACTCTACTTGACGCGCCCCG,3160
GTCTTGTCTCATTTTCACGTGCCCTTCCCCACTTCA,15800
GTAGCAAATGCACTGCATGTGTTTCTGTGGCGGGTA,10600
TCTCGACCCGGGTGGCTCGTGCGATCTCCGGAAAAA,8610
AAATTACTAAGTTGTGTCGTGGGTGACGCCGTATGA,6520
CGTAACGTTCTGCTCATCGTGACGGTGGGAGAGCCA,6820

# Set 4
# Target: Interferon regulatory factor 7, full length, phosphomimetic (IRF7, Homo sapiens, UniProt Q92985, residues 1-503, S471D/S472D/S475D/S476D/S477D/S483D/S484D/S487D)
# Method: protein-binding microarray
# Form: double-stranded DNA, one strand shown
# Medium: in vitro
# Tested at: 2200 nM top
# Setting: 60-bp whole probe
# With: salmon DNA 0.4 mg/ml
# Reference: random background probes
# Reading: higher = stronger binding
# Shared flanks, not repeated: GCCTAGCAC … GTCTTGATTCGCTTGACGCTGCTG
# Residues (chain): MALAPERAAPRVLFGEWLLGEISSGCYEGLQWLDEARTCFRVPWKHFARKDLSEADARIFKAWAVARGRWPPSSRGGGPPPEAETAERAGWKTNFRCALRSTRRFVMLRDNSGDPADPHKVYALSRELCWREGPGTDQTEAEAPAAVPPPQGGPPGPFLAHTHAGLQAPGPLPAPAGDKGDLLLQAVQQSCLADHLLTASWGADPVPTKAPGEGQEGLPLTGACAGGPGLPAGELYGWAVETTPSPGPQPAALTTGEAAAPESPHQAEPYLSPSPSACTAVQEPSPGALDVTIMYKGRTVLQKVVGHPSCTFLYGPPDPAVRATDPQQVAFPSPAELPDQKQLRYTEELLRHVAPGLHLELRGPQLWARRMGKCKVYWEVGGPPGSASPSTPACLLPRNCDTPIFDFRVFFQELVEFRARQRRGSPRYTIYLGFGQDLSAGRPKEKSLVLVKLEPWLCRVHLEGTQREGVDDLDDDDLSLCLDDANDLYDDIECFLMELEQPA
Oligonucleotide,fitted relative affinity [z-score]
TCAAATTTGCTTTAGTCACTGTGCTAG,0.621
CACGATTCCAGTTTCGAGACGTGCTAG,4.23
CCTCTTCTGGATCTCAGACTGTGCTAG,1.46
GTGGTTCTGCTTCTTAGCGCGTGCTAG,1.18
TTAGATTTCAGTCTCGATCAGTGCTAG,0.758
ATGTGTTTAAGAATGTTTTTGTGCTAG,0.592
TCATTGTTGTTTTTTGGACTGTGCTAG,1.29
TCCTCTTTCACTGCTCCATACGTGCTA,3.28
TTAGGTTTCGACTTTCGGTGAGTGCTA,7.38
GACTGTATCCTTCTCCTGACGTGCTAG,1.7
TTATATTTCAGTATCGATTAGTGCTAG,1.28
GACTAACTGAGTATCGAGACGTGCTAG,-0.109
GACGAGCTGGGGTTTCGAGACGTGCTA,0.912
TTAGGTCTCCTACTGCTTGAGTGCTAG,0.283
GACGGTATCGGTTTCGGCACGTGCTAG,2.68
TCAGATTGGTTGAACATACTGTGCTAG,0.547
TTGGATTTCAGTCTCGATTAGTGCTAG,1.19
TTAGGTCTCCTATTGCTTTAGTGCTAG,0.534
TTAGAACTGAGTTTGGATTAGTGCTAG,-0.5
TTAGATTCCAGTATCGATTAGTGCTAG,0.855
TCATGGATATATATCATACTGTGCTAG,0.667
TTAGATATCGGGTTTCGGTTAGTGCTA,3.91

# Repeated from above (set 2):
Oligonucleotide,bound/input enrichment [ratio]
GUGCCCUUCUCGCUGCUGCGGAGCCCGAGCUGGGAACACCCCUUCCGCUGGUACCCUGCACACAGCCGCCUCUUCGAUCAAGCUUUCGGGGUGCCCCGGUUGCCCGAUGAGUGGUCGCAG,0.0617
UAUAUCACCAAUGUUCUACAAAAUCCUGACUUGGCUCUGAGAAUGGCUGUGCGGAACAACUUAGCUGGUGCUGAAGAACUCUUUGCCCGGAAAUUUAAUGCUCUUUUCGCCCAGGGAAAC,0.189
GCUCUUGGGAAUGUAAUCAGCGCCUUGGGGGACAAGAGCAAGAGGGCCACCCAUGUCCCUUACAGAGACUCUAAGCUAACAAGACUAUUGCAGGAUUCCCUUGGGGGUAACAGCCAAACC,0.155
UACUACUAUGAUGGUGAUAUUGGAAAUUAUUAUUAUGGCCAGGGUCAUCCCAUGAAGCCUCAUAGAAUCCGGAUGACUCAUAACUUGCUGCUAAAUUAUGGCUUAUACCGAAAAAUGGAA,0.2
